Assay results of several laboratories.
Lines come from different studies, so protocols differ. Values joined by “and” are separate records of one study, mostly repeats; a detail may differ. ± gives the spread as reported.
Sequence of UniProt P10632 (whole entry, looked up): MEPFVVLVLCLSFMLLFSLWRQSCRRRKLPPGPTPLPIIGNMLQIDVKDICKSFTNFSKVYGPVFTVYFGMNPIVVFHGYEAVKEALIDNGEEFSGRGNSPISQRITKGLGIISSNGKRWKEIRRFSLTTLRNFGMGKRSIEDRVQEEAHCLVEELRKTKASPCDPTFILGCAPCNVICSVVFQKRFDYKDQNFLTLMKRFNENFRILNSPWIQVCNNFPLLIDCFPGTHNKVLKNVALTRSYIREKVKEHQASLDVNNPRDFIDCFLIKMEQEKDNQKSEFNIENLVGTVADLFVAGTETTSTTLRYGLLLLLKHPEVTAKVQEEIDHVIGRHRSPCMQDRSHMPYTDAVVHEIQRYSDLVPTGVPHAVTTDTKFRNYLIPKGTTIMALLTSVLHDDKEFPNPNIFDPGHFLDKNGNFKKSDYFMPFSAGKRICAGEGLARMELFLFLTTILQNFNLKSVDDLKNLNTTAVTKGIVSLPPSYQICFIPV
Sequence of UniProt O96017 (whole entry, looked up): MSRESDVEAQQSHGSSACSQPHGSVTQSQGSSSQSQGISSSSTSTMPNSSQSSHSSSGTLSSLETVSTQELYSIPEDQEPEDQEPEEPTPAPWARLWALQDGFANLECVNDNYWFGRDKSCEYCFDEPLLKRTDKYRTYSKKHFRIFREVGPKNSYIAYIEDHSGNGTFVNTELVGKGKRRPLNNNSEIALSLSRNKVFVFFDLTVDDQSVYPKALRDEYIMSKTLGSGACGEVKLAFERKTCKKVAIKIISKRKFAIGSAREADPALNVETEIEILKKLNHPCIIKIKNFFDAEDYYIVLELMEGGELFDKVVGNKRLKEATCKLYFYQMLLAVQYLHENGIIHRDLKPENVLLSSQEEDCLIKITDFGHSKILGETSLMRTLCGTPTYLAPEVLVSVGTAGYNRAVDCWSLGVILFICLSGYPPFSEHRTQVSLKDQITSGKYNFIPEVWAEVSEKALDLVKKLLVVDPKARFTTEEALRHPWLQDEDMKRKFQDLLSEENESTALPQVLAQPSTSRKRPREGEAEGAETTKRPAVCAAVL
Sequence of UniProt Q92887 (whole entry, looked up): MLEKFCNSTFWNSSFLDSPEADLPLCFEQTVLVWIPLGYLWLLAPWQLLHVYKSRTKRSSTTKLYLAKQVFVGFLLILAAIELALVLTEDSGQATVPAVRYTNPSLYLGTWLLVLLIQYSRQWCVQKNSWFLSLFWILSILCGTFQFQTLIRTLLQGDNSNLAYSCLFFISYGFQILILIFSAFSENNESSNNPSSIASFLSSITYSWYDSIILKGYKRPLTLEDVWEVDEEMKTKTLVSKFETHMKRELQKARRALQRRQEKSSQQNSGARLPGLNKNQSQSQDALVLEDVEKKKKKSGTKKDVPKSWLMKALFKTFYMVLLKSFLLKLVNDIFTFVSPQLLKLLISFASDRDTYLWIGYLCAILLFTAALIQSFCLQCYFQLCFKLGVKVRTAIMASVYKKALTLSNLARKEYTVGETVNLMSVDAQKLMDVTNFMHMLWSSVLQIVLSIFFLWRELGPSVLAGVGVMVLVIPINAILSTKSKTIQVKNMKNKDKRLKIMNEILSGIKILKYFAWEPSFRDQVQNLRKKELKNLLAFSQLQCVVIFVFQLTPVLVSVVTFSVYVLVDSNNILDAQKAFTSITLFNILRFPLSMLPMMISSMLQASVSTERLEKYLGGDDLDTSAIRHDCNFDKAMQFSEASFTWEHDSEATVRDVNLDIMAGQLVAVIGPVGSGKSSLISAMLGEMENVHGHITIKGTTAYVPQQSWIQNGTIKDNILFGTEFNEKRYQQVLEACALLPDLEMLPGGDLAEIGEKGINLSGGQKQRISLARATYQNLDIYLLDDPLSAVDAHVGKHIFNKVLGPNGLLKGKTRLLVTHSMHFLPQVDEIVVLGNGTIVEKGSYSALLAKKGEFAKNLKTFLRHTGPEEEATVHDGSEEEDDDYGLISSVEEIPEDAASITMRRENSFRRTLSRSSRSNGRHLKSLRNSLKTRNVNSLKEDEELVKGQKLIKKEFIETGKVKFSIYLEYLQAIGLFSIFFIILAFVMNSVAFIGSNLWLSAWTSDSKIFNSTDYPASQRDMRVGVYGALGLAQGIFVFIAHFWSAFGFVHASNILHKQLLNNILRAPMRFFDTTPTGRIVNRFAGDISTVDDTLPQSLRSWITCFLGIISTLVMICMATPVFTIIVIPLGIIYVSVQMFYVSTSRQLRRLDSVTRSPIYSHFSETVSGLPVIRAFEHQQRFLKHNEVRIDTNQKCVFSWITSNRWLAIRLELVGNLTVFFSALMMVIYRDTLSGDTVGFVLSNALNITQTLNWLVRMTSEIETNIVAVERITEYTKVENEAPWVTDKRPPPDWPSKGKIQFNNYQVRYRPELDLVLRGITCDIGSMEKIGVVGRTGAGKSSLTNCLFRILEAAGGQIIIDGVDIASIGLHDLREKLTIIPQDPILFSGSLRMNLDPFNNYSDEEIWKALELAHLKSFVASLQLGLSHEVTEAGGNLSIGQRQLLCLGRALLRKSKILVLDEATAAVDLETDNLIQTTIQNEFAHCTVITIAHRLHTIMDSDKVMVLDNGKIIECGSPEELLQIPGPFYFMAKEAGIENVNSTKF
Sequence of UniProt Q9UM73 (whole entry, unmodified, looked up): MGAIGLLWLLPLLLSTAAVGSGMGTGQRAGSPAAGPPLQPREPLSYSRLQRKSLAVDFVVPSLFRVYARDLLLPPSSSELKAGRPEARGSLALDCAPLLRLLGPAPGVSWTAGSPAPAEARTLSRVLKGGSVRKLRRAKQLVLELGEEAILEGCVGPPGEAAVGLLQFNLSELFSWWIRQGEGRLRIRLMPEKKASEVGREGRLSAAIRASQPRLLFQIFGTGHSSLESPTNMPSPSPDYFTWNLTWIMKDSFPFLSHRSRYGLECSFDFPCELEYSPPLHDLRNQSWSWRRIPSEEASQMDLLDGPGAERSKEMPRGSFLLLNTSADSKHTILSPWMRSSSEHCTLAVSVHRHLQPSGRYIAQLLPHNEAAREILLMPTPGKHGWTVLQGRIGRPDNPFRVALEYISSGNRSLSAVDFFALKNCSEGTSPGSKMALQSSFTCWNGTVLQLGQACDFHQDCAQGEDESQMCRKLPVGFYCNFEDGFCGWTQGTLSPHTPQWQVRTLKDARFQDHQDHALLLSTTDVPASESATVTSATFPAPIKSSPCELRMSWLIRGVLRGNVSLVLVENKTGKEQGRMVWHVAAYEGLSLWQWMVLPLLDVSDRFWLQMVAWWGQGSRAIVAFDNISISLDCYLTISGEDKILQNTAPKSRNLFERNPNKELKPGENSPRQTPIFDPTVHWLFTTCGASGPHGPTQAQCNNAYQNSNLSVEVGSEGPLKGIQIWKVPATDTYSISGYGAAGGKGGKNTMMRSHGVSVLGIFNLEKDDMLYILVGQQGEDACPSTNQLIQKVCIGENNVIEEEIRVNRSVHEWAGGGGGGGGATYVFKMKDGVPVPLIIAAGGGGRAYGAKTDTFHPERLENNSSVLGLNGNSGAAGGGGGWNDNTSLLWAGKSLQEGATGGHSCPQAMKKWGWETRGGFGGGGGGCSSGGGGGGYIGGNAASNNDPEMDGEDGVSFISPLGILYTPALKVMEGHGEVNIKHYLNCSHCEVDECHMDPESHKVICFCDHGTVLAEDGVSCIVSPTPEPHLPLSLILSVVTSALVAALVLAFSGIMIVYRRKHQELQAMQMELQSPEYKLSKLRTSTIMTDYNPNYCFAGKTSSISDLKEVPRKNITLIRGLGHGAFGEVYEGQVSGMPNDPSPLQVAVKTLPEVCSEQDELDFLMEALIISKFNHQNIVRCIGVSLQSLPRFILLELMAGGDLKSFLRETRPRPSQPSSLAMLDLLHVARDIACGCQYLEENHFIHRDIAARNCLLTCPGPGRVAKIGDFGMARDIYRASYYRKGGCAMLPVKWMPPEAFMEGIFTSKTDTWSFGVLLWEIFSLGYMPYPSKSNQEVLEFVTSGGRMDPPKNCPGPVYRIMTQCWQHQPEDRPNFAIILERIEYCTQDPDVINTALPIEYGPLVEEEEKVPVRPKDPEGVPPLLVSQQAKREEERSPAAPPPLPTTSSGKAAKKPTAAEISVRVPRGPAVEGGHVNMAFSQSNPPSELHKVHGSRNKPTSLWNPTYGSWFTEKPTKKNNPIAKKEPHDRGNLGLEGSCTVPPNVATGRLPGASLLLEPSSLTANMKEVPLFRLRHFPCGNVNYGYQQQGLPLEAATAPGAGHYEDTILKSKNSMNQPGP
Sequence of UniProt O88693 (whole entry, looked up): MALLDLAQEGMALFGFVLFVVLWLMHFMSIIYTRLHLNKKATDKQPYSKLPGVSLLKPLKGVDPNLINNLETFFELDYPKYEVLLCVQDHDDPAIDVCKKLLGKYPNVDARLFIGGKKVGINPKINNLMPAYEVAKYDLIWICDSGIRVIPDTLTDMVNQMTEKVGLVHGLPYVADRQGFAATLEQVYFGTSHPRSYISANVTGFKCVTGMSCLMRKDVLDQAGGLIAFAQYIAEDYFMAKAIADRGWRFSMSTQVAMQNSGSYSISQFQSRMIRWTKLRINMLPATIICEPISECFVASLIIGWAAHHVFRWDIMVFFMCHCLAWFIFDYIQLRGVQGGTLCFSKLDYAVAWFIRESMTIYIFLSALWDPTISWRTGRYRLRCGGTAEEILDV

`CC(C)C[C@@H]1NC(=O)[C@H](CO)NC(=O)[C@H](CC(=O)O)NC(=O)[C@@H]2CCCN2C(=O)[C@H]2CCCN2C(=O)[C@H](C(C)C)NC(=O)[C@H](CC(=O)O)NC(=O)[C@H](CC(N)=O)NC(=O)[C@H](CCCNC(=N)N)NC(=O)[C@H]([C@@H](C)O)NC(=O)[C@H](C(C)C)NC(=O)CCNC(=O)CCNC(=O)[C@H](Cc2ccccc2)NC(=O)[C@H](C(C)C)NC(=O)[C@H](CC(C)C)NC1=O`: peptide amount “not detected” (HEK-293T; subcellular fractionation LC-MS; nuclear fraction; 20 µM, 24 h).
The hepatic clearance of `O=C(CCC(F)(F)F)Nc1ccc(C2CCCCC2)cc1` is reported as 17 mL/min/kg (liver microsome stability; human liver microsomes; 1 µM, without NADPH).
`Cc1nn(-c2cccc(N)c2)c(=O)c2cnc(Nc3ccc(N4CCNCC4)cc3)nc12` gave an IC50 of > 10000 nM (CHEK2 (Homo sapiens, UniProt O96017); enzyme activity, inhibitor).
For `CC(C)OCCOCc1ccc(OCC(O)CN(N=O)C(C)C)cc1` (stereo not shown), “revertant fold increase” read 0.9 fold (Escherichia coli; Ames test; WP2 uvrA; 158 µg/plate, 30 % hamster S9; baseline: solvent control).
`N#C[C@@H]1CC(F)(F)CN1C(=O)CNC(=O)c1ccnc2c(NC(=O)[C@H](CCCCNC(=O)CCOCCOCCOCCOCCOCCOCCNC(=O)CN3CCN(CC(=O)[O-])CCN(CC(=O)[O-])CCN(CC(=O)[O-])CC3)NC(=O)CCCc3ccc(I)cc3)cccc12.[177Lu+3]` gave a tracer uptake of 0.77 %ID/g (U-87 MG tumour model; host not given, blood; 72 h, tumour-bearing).
`O=C(c1ccc(OCCN2CCCCC2)cc1)c1c(-c2ccc(O[C@@H]3O[C@H](C(=O)O)[C@@H](O)[C@H](O)[C@H]3O)cc2)sc2cc(O)ccc12` gave an intrinsic clearance of 37.2 µL/min/mg protein (ABCC2 (Homo sapiens, UniProt Q92887); substrate; Sf9 membrane vesicles; pH 7).
The AUC(0-inf) of `C=C(NC(=O)c1csc(-c2nc3c(cc2O)-c2nc(cs2)C(=O)NC(C(C)O)C(=O)NC(=C(C)OC)c2nc(cs2)C(=O)NC2c4nc(cs4)C(=O)NC(COC(=O)c4c5c6c(cccc6n4O)COC(=O)C(OC4CC(C)(O)C(N(C)C)C(C)O4)C2OC5)c2nc-3cs2)n1)C(N)=O` (stereo not shown) is reported as 8610 ng·h/mL (male cynomolgus monkey, plasma; intravenous, 1 mg/kg, single dose, infusion).
The hepatic clearance of `O=C(CC1CCOCC1)Nc1ccc([C@H]2[C@@H](F)[C@@H](F)C[C@@H](F)[C@H]2F)cc1` is reported as 21 mL/min/kg (hepatocyte stability; cryopreserved mouse hepatocytes; 1 µM).
For `CC(C)C[C@H](NC(=O)[C@@H](CCCCNC(=O)[C@@H](Cc1ccccc1)NC(=O)CCCCCNC(=O)CN1CCN(CC(=O)O)CCN(CC(=O)O)CCN(CC(=O)O)CC1)NC(=O)[C@H](Cc1ccc(O)cc1)NC(=O)[C@H](CO)NC(=O)[C@H](Cc1c[nH]c2ccccc12)NC(=O)[C@H](Cc1c[nH]cn1)NC(=O)[C@@H]1CCC(=O)N1)C(=O)N[C@@H](CCCNC(=N)N)C(=O)N1CCC[C@H]1C(=O)NCC(N)=O` [indium-111 labelled], the tissue uptake was 0.32 ± 0.17 %ID/g (female athymic nude mice, bone; intravenous, 0.037 MBq, 0.5 h).
`O=C1C2CC3CC1CC(C(=O)N1CCN(c4ccc([N+](=O)[O-])c5ncccc45)CC1)(C3)C2` — result for “mean revertant colonies”: 23 colonies/well (Salmonella typhimurium; Ames test; TA97a; 0.13 µg/well, with S9).
With `COc1cccc(OC)c1-c1cc(C(=O)NC2(C(=O)O)C3CC4CC(C3)CC2C4)nn1-c1ccc(C(=O)N(C)CCCN(C)C(=O)[C@H](CCCCNC(=O)[C@H](CC(C)C)NC(=O)C2OC2C(=O)O)NC(=O)CN2CCN(CC(=O)[O-])CCN(CC(=O)[O-])CCN(CC(=O)[O-])CC2)cc1C(C)C.[177Lu+3]` (mixture of isomers) the tracer uptake was 0.198 %ID/g (HT-29 tumour model; host not given, stomach; 4 h, tumour-bearing).
`CCCCCCCCOCCCCCN1C[C@H](O)[C@@H](O)[C@H](O)[C@@H]1CO` gave an IC50 of 50 nM (Ugcg (Mus musculus, UniProt O88693); enzyme activity, inhibitor, C6-NBD-ceramide in situ; RAW264.7; added: C6-NBD-ceramide).
With `COc1cc(/C=C/C=C2\SC(=S)NC2=O)ccc1O` the viability was 0.96 and 0.754 (HeLa; CellTiter-Glo; 20 µM, 24 h, unit not given; baseline: untreated).
The IC50 of `CCn1nc(Cl)c2c1-c1cnc(N)c(c1)O[C@H](C)c1cc(F)ccc1-c1nn(C)cc1C2` is reported as 1.8 nM (ALK (Homo sapiens, UniProt Q9UM73, S1206R); enzyme activity, inhibitor; added: 1 mM ATP).
With `N#C[C@@H]1CC(F)(F)CN1C(=O)CNC(=O)c1ccnc2c(NC(=O)CCOCCOCCOCCOCCOCCOCCNC(=O)[C@H](CCCCNC(=O)CN3CCN(CC(=O)[O-])CCN(CC(=O)[O-])CCN(CC(=O)[O-])CC3)NC(=O)CCCc3ccc(I)cc3)cccc12.[177Lu+3]` the tracer uptake was 0.11 %ID/g (U-87 MG tumour model; host not given, stomach; 48 h, tumour-bearing).
With `NS(=O)(=O)c1cccc(-c2ccc([C@H]3[C@@H](F)[C@@H](F)C[C@@H](F)[C@H]3F)cc2)c1` the hepatic clearance was 15 mL/min/kg (liver microsome stability; mouse liver microsomes; 1 µM).
For `C=C1CC[C@H](OCCCNC(=O)CCOCCOCCOCCOCCOCCOCCOCCOCCOCCOCCOCCOCCOCCOCCOCCOCCOCCOCCOCCOCCOCCOCCOCCOCCOCCOCCOCCOCCOCCOCCOCCOCCOCCOCCOCCOCCNC(=O)CCN2C(=O)CC(SC[C@H](NC(=O)[C@H](Cc3ccccc3)NC(=O)[C@H](CC(N)=O)NC(=O)[C@H](Cc3c[nH]cn3)NC(=O)[C@@H](NC(=O)[C@H](CC(=O)O)NC(=O)[C@H](CCC(N)=O)NC(=O)[C@H](CC(C)C)NC(=O)[C@H](CCCCN)NC(=O)[C@H](CCCCN)NC(=O)[C@H](CCCNC(=N)N)NC(=O)[C@H](CC(C)C)NC(=O)[C@H](Cc3c[nH]c4ccccc34)NC(=O)[C@H](CCC(=O)O)NC(=O)[C@@H](NC(=O)[C@H](CCCNC(=N)N)NC(=O)[C@H](CCC(=O)O)NC(=O)[C@H](CCSC)NC(=O)[C@H](CO)NC(=O)[C@H](CC(N)=O)NC(=O)[C@H](CC(C)C)NC(=O)[C@H](Cc3c[nH]cn3)NC(=O)[C@H](CCCCN)NC(=O)CNC(=O)[C@H](CC(C)C)NC(=O)[C@H](CC(N)=O)NC(=O)[C@H](Cc3c[nH]cn3)NC(=O)[C@H](CCSC)NC(=O)[C@H](CC(C)C)NC(=O)[C@H](CCC(N)=O)NC(=O)[C@@H](NC(=O)[C@H](CCC(=O)O)NC(=O)[C@H](CO)NC(=O)[C@@H](NC(=O)[C@@H](N)CO)C(C)C)[C@@H](C)CC)C(C)C)C(C)C)C(=O)O)C2=O)C/C1=C/C=C1\CCC[C@]2(C)[C@@H]([C@H](C)CCCC(C)(C)O)CC[C@@H]12` (stereo partly shown), the MRT was 13.6 h (rat, plasma; subcutaneous, 300 µg/kg, single dose).
The activity concentration of `CC(C)C[C@H](NC(=O)[C@H](Cc1ccc(O)cc1)NC(=O)[C@@H](CCCNC(=N)N)NC(=O)[C@@H](CO)NC(=O)[C@H](Cc1ccccc1)NC(=O)[C@H](CC1CCCCC1)NC(=O)[C@H](CC(=O)O)NC(=O)CN1CCN(CC(=O)O)CCN(CC(=O)O)CCN(CC(=O)O)CC1)C(=O)N[C@@H](Cc1c[nH]c2ccccc12)C(=O)N[C@@H](CO)C(=O)O` [copper-64 labelled] is reported as 1520 Bq/mL and 1660 Bq/mL and 1160 Bq/mL and 926 Bq/mL and 2050 Bq/mL (human, red marrow; concentration not given, 1 h).
The hepatic clearance of `O=C(Nc1ccc(C2CCCCC2)cc1)C1(N2CCOCC2)CC1` is reported as 51 mL/min/kg (hepatocyte stability; cryopreserved mouse hepatocytes; 1 µM).
The tissue uptake of `CCCC[C@H](NC(=O)COCCOCCNC(=O)CN1CCN(CC(=O)O)CCN(CC(=O)O)CC1)C(=O)N[C@H]1CC(=O)NCCCC[C@@H](C(N)=O)NC(=O)[C@H](Cc2c[nH]c3ccccc23)NC(=O)[C@H](CCCNC(=N)N)NC(=O)[C@@H](Cc2ccccc2)NC(=O)[C@H](Cc2c[nH]cn2)NC1=O` [technetium-99m labelled] is reported as 0.47 ± 0.17 %ID/g (C57 mouse, skin; intravenous, 0.037 MBq, 2 h).
`F[C@@H]1[C@H](c2ccc(-c3cnc(N4CCOCC4)nc3)cc2)[C@H](F)[C@H](F)C[C@@H]1F` gave a hepatic clearance of 7.2 mL/min/kg (hepatocyte stability; cryopreserved human hepatocytes; 1 µM).
`CNC(=O)C1CCCN(C(=O)C2CC3CCC2N3C(=O)[C@@H]2C[C@@H](O)CN2C(=O)NCc2cccc(Cl)c2F)C1` (mixture of isomers) gave a remaining activity of 86.7% and 82.8% and 92.2% (Cytochrome P450 2C8 (CYP2C8, Homo sapiens, UniProt P10632); preincubation without NADPH; human; 0.617 µM; baseline: negative control).

For quick reference, copied from above:
The tissue uptake of `CCCC[C@H](NC(=O)COCCOCCNC(=O)CN1CCN(CC(=O)O)CCN(CC(=O)O)CC1)C(=O)N[C@H]1CC(=O)NCCCC[C@@H](C(N)=O)NC(=O)[C@H](Cc2c[nH]c3ccccc23)NC(=O)[C@H](CCCNC(=N)N)NC(=O)[C@@H](Cc2ccccc2)NC(=O)[C@H](Cc2c[nH]cn2)NC1=O` [technetium-99m labelled] is reported as 0.47 ± 0.17 %ID/g (C57 mouse, skin; intravenous, 0.037 MBq, 2 h).
